Assay results of several laboratories.
Parts stem from different laboratories: compare values within a part only. Changes are numbered by the printed parent chain.

Sample 1
Target: CCNB3, cyclin fold, Cln2 fusion (human)
Technique: yeast growth competition, sequencing
Medium: yeast
Notes: strong parent motif
Reference: not given
Reading: higher = stronger binding
Endpoint: normalised enrichment score
Starting sequence: PKN2 docking peptide (human); VSAVRKLDFSDTM
Change = R5V; result = 0.125
Change = D8T; result = 0.798
Change = S2A; result = 1.19
Change = T12Y; result = 1.79
Change = S2M; result = 1.41
Change = S2K; result = 1.13
Change = V4C; result = 2.37
Change = A3M; result = 0.424

Sample 2
Target: PABPC1L2, full length, GST fusion (mouse, UniProt A0ABA7IW68)
Technique: RNAcompete
Molecule type: RNA
Medium: in vitro
Concentration: 20 nM
Notes: 7-mer, probes averaged, single round
Reference: mean of 7-mers
Reading: higher = stronger binding
Endpoint: 7-mer Z-score
Construct (chain): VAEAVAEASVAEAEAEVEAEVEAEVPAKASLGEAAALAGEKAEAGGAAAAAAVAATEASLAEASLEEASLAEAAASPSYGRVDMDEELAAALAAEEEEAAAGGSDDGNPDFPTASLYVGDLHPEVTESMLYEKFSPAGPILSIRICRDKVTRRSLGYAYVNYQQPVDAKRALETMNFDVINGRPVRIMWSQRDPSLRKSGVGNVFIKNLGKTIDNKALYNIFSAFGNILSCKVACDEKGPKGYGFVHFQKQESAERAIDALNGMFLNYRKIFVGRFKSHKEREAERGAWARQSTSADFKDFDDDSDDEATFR
Sequence = ACUUCGU; result = -0.306
Sequence = CCACAUU; result = -0.157
Sequence = GCUGAGG; result = 0.256
Sequence = UACUCGU; result = -0.396
Sequence = UAGCUCA; result = -0.242
Sequence = GACAUCU; result = -0.237
Sequence = CGUUGCC; result = -0.24
Sequence = GCAACCU; result = -0.121

Sample 3
Target: Probable WRKY transcription factor 11, DNA-binding domain (WRKY11, Arabidopsis thaliana, UniProt Q9SV15, residues 228-325)
Technique: DNA-protein interaction ELISA
Molecule type: double-stranded DNA, one strand shown
Medium: in vitro, bacterial lysate
Concentration: not given
Notes: whole dsDNA probe, crude lysate protein
Reference: highest signal in screen
Reading: higher = stronger binding
Endpoint: relative absorbance
Target sequence (chain): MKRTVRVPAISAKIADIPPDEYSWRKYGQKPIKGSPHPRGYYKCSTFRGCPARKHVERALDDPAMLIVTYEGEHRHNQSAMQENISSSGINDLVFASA
Sequence = AAAAAATCGCACTGCCGCCGATGGCTAAAA; result = 15.3 % of maximum
Sequence = AAAAAACTACAACCTGCGCGGTGGTCAAAA; result = 21 % of maximum
Sequence = AAAAAAACCTCTTTATTCTCGATTGTAAAA; result = 15.8 % of maximum
Sequence = AAAAAAGCCGTGGGTGATGGTCACAGAAAA; result = 13.8 % of maximum
Sequence = AAAAAACTTCTAGTTTATGCTTCCGTAAAA; result = 17 % of maximum
Sequence = AAAAAATGGAAAGACCTATACCGGTCAAAA; result = 27.9 % of maximum
Sequence = AAAAAAGCGCGAATTCTAGAACTATAAAAA; result = 14.1 % of maximum
Sequence = AAAAAAGGCGGTCGTAGTTGTGGGAGAAAA; result = 31.1 % of maximum

Mixed results
SMILES = CCOc1cc(/C=C2/C(=O)N(c3ccccc3)N=C2C)cc(Cl)c1OCC(=O)OC; cell line = mouse MPNST tumor cells; test = high-content nuclear imaging, item: cell number; conditions = 10 µM, 12 h, mean of 2 replicates; scale = reference: plate mean, higher = more cells; endpoint = nuclei count; result = 0.94 z-score

For quick reference, copied from above (sample 1):
Change = R5V; result = 0.125
Change = A3M; result = 0.424
Change = D8T; result = 0.798
Change = S2A; result = 1.19
